Experimental data gathered from unrelated publications.
A part holds a random share of what one study measured.
Chain of UniProt P41145 (whole entry, looked up): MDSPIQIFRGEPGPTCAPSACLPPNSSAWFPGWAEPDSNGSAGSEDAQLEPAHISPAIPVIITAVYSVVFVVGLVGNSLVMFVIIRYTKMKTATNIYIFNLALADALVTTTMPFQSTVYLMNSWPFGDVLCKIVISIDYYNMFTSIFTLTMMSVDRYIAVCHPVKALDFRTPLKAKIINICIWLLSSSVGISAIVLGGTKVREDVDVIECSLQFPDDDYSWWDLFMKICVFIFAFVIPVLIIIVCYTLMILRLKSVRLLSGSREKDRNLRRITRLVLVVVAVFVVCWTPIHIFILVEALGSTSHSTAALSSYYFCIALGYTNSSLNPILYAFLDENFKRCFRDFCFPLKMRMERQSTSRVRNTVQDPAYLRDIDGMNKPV
Chain of UniProt P23975 (whole entry, looked up): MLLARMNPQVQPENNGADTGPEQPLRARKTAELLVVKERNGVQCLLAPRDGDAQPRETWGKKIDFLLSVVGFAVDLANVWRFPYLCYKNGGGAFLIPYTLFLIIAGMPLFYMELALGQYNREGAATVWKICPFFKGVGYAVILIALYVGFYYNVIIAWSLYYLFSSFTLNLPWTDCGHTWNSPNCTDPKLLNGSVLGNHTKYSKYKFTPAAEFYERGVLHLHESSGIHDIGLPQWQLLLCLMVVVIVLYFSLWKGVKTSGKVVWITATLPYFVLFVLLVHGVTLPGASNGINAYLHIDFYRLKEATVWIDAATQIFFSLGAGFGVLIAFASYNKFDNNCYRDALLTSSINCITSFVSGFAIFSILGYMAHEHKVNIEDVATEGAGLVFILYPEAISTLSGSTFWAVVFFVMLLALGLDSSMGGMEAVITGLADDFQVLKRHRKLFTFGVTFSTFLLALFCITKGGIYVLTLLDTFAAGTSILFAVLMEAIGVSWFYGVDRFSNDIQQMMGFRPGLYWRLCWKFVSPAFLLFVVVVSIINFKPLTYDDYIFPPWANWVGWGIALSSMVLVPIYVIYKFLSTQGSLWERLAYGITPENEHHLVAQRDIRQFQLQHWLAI
Chain of UniProt P35372 (whole entry, looked up): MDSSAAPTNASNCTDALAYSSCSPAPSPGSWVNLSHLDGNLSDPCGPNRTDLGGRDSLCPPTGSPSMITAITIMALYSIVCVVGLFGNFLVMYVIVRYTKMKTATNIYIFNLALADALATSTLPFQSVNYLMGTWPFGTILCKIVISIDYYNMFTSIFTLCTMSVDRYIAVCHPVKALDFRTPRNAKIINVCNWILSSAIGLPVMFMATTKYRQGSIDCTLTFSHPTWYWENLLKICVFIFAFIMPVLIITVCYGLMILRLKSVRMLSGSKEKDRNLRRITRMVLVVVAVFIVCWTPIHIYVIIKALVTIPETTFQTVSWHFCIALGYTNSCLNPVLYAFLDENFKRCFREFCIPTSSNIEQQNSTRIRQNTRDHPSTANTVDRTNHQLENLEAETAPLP
Chain of UniProt P20309 (whole entry, looked up): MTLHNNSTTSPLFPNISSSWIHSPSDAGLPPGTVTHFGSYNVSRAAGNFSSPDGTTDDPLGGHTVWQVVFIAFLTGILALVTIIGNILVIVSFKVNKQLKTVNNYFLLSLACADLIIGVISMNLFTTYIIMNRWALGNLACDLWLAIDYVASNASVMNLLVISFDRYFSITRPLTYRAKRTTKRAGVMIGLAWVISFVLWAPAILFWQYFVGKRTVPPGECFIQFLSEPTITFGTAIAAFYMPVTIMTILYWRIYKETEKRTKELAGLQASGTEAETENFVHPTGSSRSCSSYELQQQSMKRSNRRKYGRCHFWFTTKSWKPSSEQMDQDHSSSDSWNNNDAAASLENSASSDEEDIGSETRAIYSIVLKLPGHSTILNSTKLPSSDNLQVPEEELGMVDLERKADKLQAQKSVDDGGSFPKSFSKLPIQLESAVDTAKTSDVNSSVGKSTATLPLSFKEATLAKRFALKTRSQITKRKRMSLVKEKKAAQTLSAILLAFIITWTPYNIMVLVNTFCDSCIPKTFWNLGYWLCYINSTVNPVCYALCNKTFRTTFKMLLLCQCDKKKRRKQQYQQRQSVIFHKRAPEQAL
Chain of UniProt P21918 (whole entry, looked up): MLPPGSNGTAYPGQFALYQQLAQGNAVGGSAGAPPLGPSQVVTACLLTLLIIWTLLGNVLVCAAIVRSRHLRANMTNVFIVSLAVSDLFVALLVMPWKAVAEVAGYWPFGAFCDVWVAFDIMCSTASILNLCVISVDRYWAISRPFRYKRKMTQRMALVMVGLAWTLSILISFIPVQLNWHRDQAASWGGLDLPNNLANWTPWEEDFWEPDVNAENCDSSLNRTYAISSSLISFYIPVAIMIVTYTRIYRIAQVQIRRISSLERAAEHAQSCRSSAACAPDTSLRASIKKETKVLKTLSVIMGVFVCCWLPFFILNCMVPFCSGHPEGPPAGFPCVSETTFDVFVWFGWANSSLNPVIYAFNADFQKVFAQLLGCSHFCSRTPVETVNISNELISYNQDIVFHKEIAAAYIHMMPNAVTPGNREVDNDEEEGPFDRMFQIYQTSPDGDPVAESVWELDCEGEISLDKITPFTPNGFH
Chain of UniProt P31645 (whole entry, looked up): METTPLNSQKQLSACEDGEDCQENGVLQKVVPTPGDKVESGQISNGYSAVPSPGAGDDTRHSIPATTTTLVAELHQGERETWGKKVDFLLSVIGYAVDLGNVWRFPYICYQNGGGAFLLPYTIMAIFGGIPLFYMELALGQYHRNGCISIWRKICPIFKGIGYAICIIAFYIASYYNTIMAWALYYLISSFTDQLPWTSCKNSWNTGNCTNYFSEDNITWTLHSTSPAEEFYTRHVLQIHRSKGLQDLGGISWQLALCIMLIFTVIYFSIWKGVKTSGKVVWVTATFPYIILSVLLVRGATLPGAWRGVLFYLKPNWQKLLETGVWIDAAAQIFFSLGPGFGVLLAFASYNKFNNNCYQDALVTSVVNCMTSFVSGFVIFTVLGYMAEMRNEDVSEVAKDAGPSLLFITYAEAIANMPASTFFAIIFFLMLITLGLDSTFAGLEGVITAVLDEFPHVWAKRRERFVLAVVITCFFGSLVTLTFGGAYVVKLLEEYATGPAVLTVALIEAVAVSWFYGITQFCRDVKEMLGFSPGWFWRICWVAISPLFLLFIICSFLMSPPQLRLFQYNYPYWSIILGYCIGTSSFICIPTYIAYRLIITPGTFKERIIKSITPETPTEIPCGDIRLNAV

Sample 1
Cell line: mouse MPNST tumor cells
Technique: high-content immunofluorescence imaging
Refers to: nuclear SOX9
Tested at: 10 µM
Time: 12 h
Setting: mean of 2 replicates
Relative to: DMSO control
Reading: higher = more nuclear SOX9
SMILES	nuclear SOX9 intensity
CC(C)(C)OC(=O)c1ncn2c1[C@@H]1CCCN1C(=O)c1c(Br)cccc1-2	85.3 % of DMSO
CCN(C(C)=O)c1cccc(-c2ccnc3c(C#N)cnn23)c1	120 % of DMSO
CC(=O)[C@H]1CC[C@H]2[C@@H]3CC[C@H]4C[C@H](O)CC[C@]4(C)[C@H]3C(=O)C[C@]12C	97.9 % of DMSO

Sample 2
Target: Calcium/calmodulin-dependent protein kinase type II subunit alpha (CAMK2A, Homo sapiens, UniProt Q9UQM7)
Chain of UniProt Q9UQM7 (whole entry, looked up): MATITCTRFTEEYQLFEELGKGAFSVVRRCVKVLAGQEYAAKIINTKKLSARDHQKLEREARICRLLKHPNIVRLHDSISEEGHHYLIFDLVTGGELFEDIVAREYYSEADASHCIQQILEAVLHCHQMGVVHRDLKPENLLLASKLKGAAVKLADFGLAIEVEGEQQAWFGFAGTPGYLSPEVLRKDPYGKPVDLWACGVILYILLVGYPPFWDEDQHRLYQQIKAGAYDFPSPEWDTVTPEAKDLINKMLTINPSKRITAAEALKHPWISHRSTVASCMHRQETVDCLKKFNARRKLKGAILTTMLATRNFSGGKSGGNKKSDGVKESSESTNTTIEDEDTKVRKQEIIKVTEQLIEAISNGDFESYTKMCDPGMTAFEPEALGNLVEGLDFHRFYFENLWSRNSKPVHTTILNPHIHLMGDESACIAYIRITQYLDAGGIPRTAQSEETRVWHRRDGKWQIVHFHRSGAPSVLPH
Read-out: enzyme activity
Mode: inhibitor
Tested at: 10 µM
SMILES	inhibition [%]
N[C@H](C(=O)O)c1cc(O)no1	40
CC(=O)O[C@@]12CO[C@@H]1C[C@H](O[C@@H]1OC[C@@H](O)[C@H](O)[C@H]1O)[C@@]1(C)C(=O)[C@H](O)C3=C(C)[C@@H](OC(=O)[C@H](O)[C@@H](NC(=O)c4ccccc4)c4ccccc4)C[C@@](O)([C@@H](OC(=O)c4ccccc4)[C@H]21)C3(C)C	-21
COc1cc2occc2c2oc(=O)ccc12	-26
C[C@]12CC[C@H](O)C[C@@]1(O)CC[C@@H]1[C@@H]2CC[C@]2(C)[C@@H](c3ccc(=O)oc3)[C@@H](O)[C@H]3O[C@]132	1
Cc1ncc(CNC(=O)N(CCCl)N=O)c(N)n1	4

Sample 3
Compound: CCC(=O)N[C@H]1CC[C@@H](C(=O)N(C)c2ccc(-c3nc4ccccc4o3)cc2)C1
Read-out: binding
Technique: radioligand binding
Tested at: 10 µM
target	inhibition
DRD5 (Homo sapiens, UniProt P21918)	-9.45%
SLC6A4 (Homo sapiens, UniProt P31645)	32.8%
OPRK1 (Homo sapiens, UniProt P41145)	-6.54%
SLC6A2 (Homo sapiens, UniProt P23975)	2.94%
CHRM3 (Homo sapiens, UniProt P20309)	-14.8%
OPRM1 (Homo sapiens, UniProt P35372)	10.3%

Sample 4
Organism: Sarcocystis neurona
Read-out: parasite activity
Tested at: 10 µM
Time: 96 h
Structure (SMILES)	activity class
C[C@]12Cc3c[nH]nc3C[C@@H]1CC[C@@H]1[C@@H]2CC[C@@]2(C)[C@H]1CC[C@]2(C)O	inactive
C[C@]12CCC(=O)C[C@@H]1CC[C@@H]1[C@@H]2CC[C@@]2(C)[C@H]1CC[C@]2(C)O	inactive
CC(C)CC(N(C)C)C1(c2ccc(Cl)cc2)CCC1 (centres unmarked)	inactive
CNC1=Nc2ccc(Cl)cc2C(c2ccccc2)=[N+]([O-])C1	inactive
Cc1ccc(-c2nc3ccc(C)cn3c2CC(=O)N(C)C)cc1	inactive
CCOC(=O)C1(c2ccccc2)CCN(CCC(C#N)(c2ccccc2)c2ccccc2)CC1	inactive

For quick reference, copied from above (sample 3):
target	inhibition
DRD5 (Homo sapiens, UniProt P21918)	-9.45%
